Experimental data from different studies.
Target: Casein kinase I isoform gamma-2 (CSNK1G2, Homo sapiens, UniProt P78368)
Chain of UniProt P78368 (whole entry, looked up): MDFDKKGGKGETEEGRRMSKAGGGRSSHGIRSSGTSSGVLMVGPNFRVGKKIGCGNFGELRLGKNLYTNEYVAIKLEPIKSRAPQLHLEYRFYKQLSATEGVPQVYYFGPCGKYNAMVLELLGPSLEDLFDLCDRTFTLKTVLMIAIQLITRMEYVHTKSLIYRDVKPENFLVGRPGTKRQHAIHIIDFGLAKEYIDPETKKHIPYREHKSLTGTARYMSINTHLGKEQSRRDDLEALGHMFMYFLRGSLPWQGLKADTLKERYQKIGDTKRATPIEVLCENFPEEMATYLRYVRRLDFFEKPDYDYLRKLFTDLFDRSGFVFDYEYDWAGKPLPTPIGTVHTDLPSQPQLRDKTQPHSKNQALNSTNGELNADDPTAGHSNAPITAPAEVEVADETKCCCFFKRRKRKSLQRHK

| SMILES | test | system | setting | scale | endpoint | value |
| --- | --- | --- | --- | --- | --- | --- |
| C=CC(=O)N1CCC(C(=O)NCC(=O)N2CCN(c3nc(-c4cnc(N)nc4C(F)F)nc(N4CCOCC4)n3)CC2)CC1 | KINOMEscan |  | 1 µM |  | remaining binding | 100% |
| C=CC(=O)N1CCC(COCC(=O)N2CCN(c3nc(-c4cnc(N)nc4C(F)F)nc(N4CCOC[C@@H]4C)n3)CC2)CC1 | KINOMEscan |  | 1 µM | baseline: DMSO control | remaining binding | 99% |
| CCCOc1ccc(OC)c(F)c1C(=O)c1ccc(C(=O)N[C@@H]2CNC[C@H]2NC(=O)c2ccc3[nH]ncc3c2)cc1 | enzyme activity |  | 10 µM |  | remaining activity | 60% |
| COc1cc(N2CCN(C)CC2)ccc1Nc1nc(N)n(C(=S)NCc2c(Cl)cccc2Cl)n1 | enzyme activity |  | 10 µM | baseline: control | remaining activity | 33% |
| CCN(CC)c1ccc(C2=NNC(=O)CC2C)cc1[N+](=O)[O-] (centres unmarked) | enzyme activity, inhibitor |  | 10 µM | baseline: vehicle | remaining activity | 107% |
| C1=C/COCc2cc(ccc2OCCN2CCCC2)Nc2nccc(n2)-c2cccc(c2)COC/1 |  |  | concentration not given |  | percent of control | 92% |
| C[C@@H](c1ccc(-n2cnc3c(N)ncnc32)cc1)N1CCc2nn(C)c(Cc3ccccc3)c2C1=O | KINOMEscan |  | 0.1 µM | baseline: DMSO control | remaining binding | 96% |
| O=C(NC1CCC1)c1ccc2nc(-c3cccc(NS(=O)(=O)NCCN4CCCCC4)c3)cn2c1 | enzyme activity |  | 10 µM |  | remaining activity | 76% |
| COc1cc(F)ccc1-c1ncnc(Nc2cccc(C[S@](C)(=N)=O)c2)n1 | kinase activity |  | 10 µM, added: 10 µM ATP |  | remaining activity | 87% |
| CC[C@@H]1[C@H](F)C(=O)N[C@@H]1COc1nccc2cc(C(N)=O)c(OC)cc12 | ATP-site probe binding, ActivX profiling | THP-1 cell lysate | 0.01 mM, Lys2 site |  | inhibition | 4.3% |
| Cc1cc(Nc2cc(N3CCN(C)CC3)nc(Sc3ccc(NC(=O)C4CC4)cc3)n2)[nH]n1 | kinase activity, KinaseProfiler |  | 0.03 µM, species human | baseline: control | remaining activity | 108% |

Some of these lines once more:
| SMILES | test | system | setting | scale | endpoint | value |
| --- | --- | --- | --- | --- | --- | --- |
| CC[C@@H]1[C@H](F)C(=O)N[C@@H]1COc1nccc2cc(C(N)=O)c(OC)cc12 | ATP-site probe binding, ActivX profiling | THP-1 cell lysate | 0.01 mM, Lys2 site |  | inhibition | 4.3% |
